Assay results collected from several papers.
Each line is one published result; not all experiments were run side by side.
Organism: Staphylococcus aureus

Compound = CN[C@H](CC(C)C)C(=O)N[C@H]1C(=O)N[C@@H](CC(N)=O)C(=O)N[C@H]2C(=O)N[C@H]3C(=O)N[C@H](C(=O)N[C@H](C(=O)NCc4cn(CC(=O)N[C@H](C(=O)N[C@@H](CCN)C(=O)N[C@H]5CCNC(=O)[C@H]([C@@H](C)O)NC(=O)[C@H](CCN)NC(=O)[C@H](CCN)NC(=O)[C@H](CC(C)C)NC(=O)[C@@H](CC(C)C)NC(=O)[C@H](CCN)NC5=O)[C@@H](C)O)nn4)c4cc(O)cc(O)c4-c4cc3ccc4O)[C@H](O)c3ccc(c(Cl)c3)Oc3cc2cc(c3O[C@@H]2O[C@H](CO)[C@@H](O)[C@H](O)[C@H]2O[C@H]2C[C@](C)(N)[C@H](O)[C@H](C)O2)Oc2ccc(cc2Cl)[C@H]1O; system = MRSA USA300; MIC = 0.2 µM
Compound = CN[C@H](CC(C)C)C(=O)N[C@H]1C(=O)N[C@@H](CC(N)=O)C(=O)N[C@H]2C(=O)N[C@H]3C(=O)N[C@H](C(=O)N[C@H](C(=O)O)c4cc(O)cc(O)c4-c4cc3ccc4O)[C@H](O)c3ccc(c(Cl)c3)Oc3cc2cc(c3O[C@@H]2O[C@H](CO)[C@@H](O)[C@H](O)[C@H]2O[C@H]2C[C@](C)(N)[C@H](O)[C@H](C)O2)Oc2ccc(cc2Cl)[C@H]1O; system = clinical isolate; conditions = 18 to 20 h, 37 °C; MIC = < 1 µM
Compound = CC[C@H](C)[C@@H]1NC(=O)[C@H](CO)NC(=O)C(C)(CCCCN)NC(=O)[C@@H]2CSSC[C@@H](C(=O)N[C@@H](Cc3ccc(O)cc3)C(N)=O)NC(=O)[C@H](CCCCN)NC(=O)[C@@H]3CSSC[C@H](NC(=O)[C@H](CCCNC(=N)N)NC(=O)C(C)(CC(C)C)NC(=O)[C@H](CC(=O)O)NC(=O)[C@H](CC(=O)O)NC(=O)[C@H](CCC(=O)O)NC(=O)[C@H](CC(N)=O)NC(=O)[C@H](Cc4c[nH]c5ccccc45)NC(=O)C(C)(CC)NC(=O)CNC(=O)[C@H](CC(N)=O)NC(=O)[C@@H](NC(=O)CNC(=O)[C@H](Cc4ccccc4)NC(=O)CN)CSSC[C@H](NC(=O)[C@H](Cc4ccc(O)cc4)NC(=O)CNC(=O)CNC(=O)[C@H](CCCCN)NC(=O)[C@H](Cc4ccc(O)cc4)NC(=O)[C@H]4CCCN4C(=O)[C@@H]4CCCN4C1=O)C(=O)N[C@@H](C)C(=O)N[C@@H](CCCCN)C(=O)N1CCC[C@@H]1C(=O)NCC(=O)N[C@@H](Cc1ccccc1)C(=O)N[C@@H](C(C)C)C(=O)N3)C(=O)N[C@@H](Cc1c[nH]cn1)C(=O)NC(C)(C)C(=O)N[C@@H](Cc1c[nH]cn1)C(=O)N2 (stereo partly shown); system = 467, methicillin-resistant mecA, cation-adjusted Mueller Hinton broth; conditions = 18 h, 37 °C; MIC = 8 µM
Compound = CC[C@H]1OC(=O)[C@H](C)[C@@H](OC(=O)Cc2ccc([N+](=O)[O-])cc2)[C@H](C)[C@@H](O[C@@H]2O[C@H](C)C[C@H](N(C)C)[C@H]2O)[C@](C)(OC)C[C@@H](C)C(=O)[C@H](C)[C@@H](O)[C@]1(C)O; test = microbial growth; system = BAA976; MIC = 1 µg/mL
Compound = CC1CCN(C(=O)c2cccc(NC(=O)Nc3ccc(F)cc3F)c2)CC1; test = checkerboard, refers to: ceftobiprole; system = CRB, PBP4 overexpressor; conditions = 25 µM; MIC = > 64 µg/mL
Compound = Cc1ccc2nc(C)c(C(=O)C(=O)NCc3ccc(N(C)C)cc3)n2c1; test = microbial growth, broth dilution; MIC = > 128 µM
Compound = CC1COC2=C1C(=O)C(=O)c1c2ccc2c1C(OC(=O)CNC(=O)C(N)CCC(=O)O)CCC2(C)C (mixture of isomers); system = GDMCC 1.122; conditions = 48 h; MIC = 31 µM
Compound = COc1ccc2ccc(O)c(/C=N/[C@H]3CCCC[C@H]3/N=C/c3cccc(C)c3O)c2c1; test = bacterial growth, broth microdilution; system = vancomycin-intermediate; MIC = > 40 µM
Compound = CN[C@H](CC(C)C)C(=O)N[C@H]1C(=O)N[C@@H](CC(N)=O)C(=O)N[C@H]2C(=O)N[C@H]3C(=O)N[C@H](C(=O)N[C@H](C(=O)N[C@@H](CCCNC(=N)N)C(N)=O)c4cc(O)cc(O)c4-c4cc3ccc4O)[C@H](O)c3ccc(c(Cl)c3)Oc3cc2cc(c3O[C@@H]2O[C@H](CO)[C@@H](O)[C@H](O)[C@H]2O[C@H]2C[C@](C)(NCc3ccc(OCc4cn(CC(=O)N[C@H](C(=O)N[C@@H](CCN)C(=O)N[C@H]5CCNC(=O)[C@H]([C@@H](C)O)NC(=O)[C@H](CCN)NC(=O)[C@H](CCN)NC(=O)[C@H](CC(C)C)NC(=O)[C@@H](CC(C)C)NC(=O)[C@H](CCN)NC5=O)[C@@H](C)O)nn4)c(OC)c3)[C@H](O)[C@H](C)O2)Oc2ccc(cc2Cl)[C@H]1O; system = MSSA ATCC 29213; MIC = 0.358 µM
Compound = CN[C@@H]1[C@H](O)[C@H](NC)[C@H]2O[C@]3(O)[C@H](O[C@@H]2[C@H]1O)O[C@H](C)C[C@H]3NC(=O)Cc1ccc(F)cn1; test = microbial growth, broth dilution; system = 8325; MIC = 25 µg/mL
Compound = CC[C@H](C)[C@H](N)C(=O)N[C@@H](C)C(=O)N[C@@H](CC(C)C)C(=O)N[C@H](CCC(=O)O)C(=O)N[C@H](C(=O)N[C@H]1CCCCNC(=O)[C@H](CC(N)=O)NC(=O)[C@@H](CC(=O)O)NC(=O)[C@H](Cc2c[nH]cn2)NC(=O)[C@@H](Cc2ccccc2)NC(=O)[C@H]([C@@H](C)CC)NC(=O)[C@@H](CCCN)NC1=O)[C@@H](C)CC; system = ATCC 29213 methicillin-susceptible; conditions = 18 h, 37 °C, 0.3 mM ZnSO4 LB; MIC = > 64 µg/mL
Compound = Cc1ccc2[nH]c3c(c2c1)CCCC3NCCc1ccc(O)cc1 (stereo not shown); test = broth microdilution; system = HG001 daptomycin-resistant; MIC = 16 µg/mL
Compound = CC[C@H](C)[C@H](NC(=O)[C@@H](CCCNC(=N)N)NC(=O)[C@H](CCCNC(=N)N)NC(=O)[C@@H](NC(=O)[C@H](Cc1c[nH]c2ccccc12)NC(=O)[C@H](CCCNC(=N)N)NC(=O)[C@@H]1CCCN1C(=O)[C@H](CCCNC(=N)N)NC(=O)[C@@H]1CCCN1C(=O)[C@H](CC(C)C)NC(=O)[C@H](Cc1ccc(O)cc1)NC(=O)[C@@H]1CCCN1C(=O)[C@@H]1CCCN1C(=O)[C@H](CCCCN)NC(=O)[C@H](CC(=O)O)NC(=O)[C@@H](N)C(C)C)C(C)C)C(=O)N[C@@H](Cc1ccc(O)cc1)C(=O)N[C@@H](CC(N)=O)C(=O)N[C@H](CCCNC(=N)N)C(N)=O; test = broth microdilution; system = DSM 6247; conditions = 18 h, 37 °C, 25% MHB2; MIC = 64 µg/mL
Compound = CC(C)CCCCCCCCC/C=C/C(=O)N[C@@H](CC(N)=O)C(=O)N[C@H]1CNC(=O)[C@@H]2CCCN2C(=O)[C@H](C(C)C)NC(=O)[C@@H](CN)NC(=O)CNC(=O)[C@H](CC(=O)O)NC(=O)CNC(=O)[C@H](CC(=O)O)NC(=O)[C@H](CC(=O)O)NC(=O)[C@H]2CCCCN2C1=O; test = broth microdilution; system = MRSA USA300, Mueller-Hinton broth, Mg2+ 10 mg/L; conditions = 16 h, 37 °C, with: Ca2+ 10 mM; MIC = 2 µg/mL
Compound = CC(C)C[C@@H](NC(=O)[C@@H](CCCNC(=N)N)NC(=O)[C@H](N)CCCNC(=N)N)C(=O)N[C@H](CC(C)C)C(=O)N[C@H](CCCNC(=N)N)C(=O)N[C@H](CCCCN)C(=O)N[C@H](CC(C)C)C(=O)N[C@H](CCCCN)C(=O)NCC(=O)N[C@H](CCCCN)C(=O)N[C@H](CCCCN)C(=O)N[C@H](CC(C)C)C(=O)N[C@H](Cc1ccc(O)cc1)C(=O)N[C@H](CC(C)C)C(=O)N[C@H](Cc1ccc(O)cc1)C(=O)N[C@H](Cc1ccccc1)C(=O)N[C@H](CCCCN)C(=O)N[C@H](CC(C)C)C(=O)N[C@H](CCC(N)=O)C(=O)N[C@H](CC(C)C)C(=O)N[C@H](CC(C)C)C(=O)N[C@H](CCCCN)C(=O)N[C@H](CCCCN)C(N)=O; system = KCTC 1621, Mueller-Hinton broth; conditions = with: 2.5 mM CaCl2; MIC = 32 µM
Compound = CCn1c(-c2ccc(F)cc2)c(-c2ccc(F)cc2)n(Cc2ccccc2)c1=[Se]; test = microbial growth, broth dilution; system = ATCC700699 VISA; conditions = 24 h, drug-resistant strain; MIC = > 40 µM
Compound = CC[C@H](C)[C@H](NC(=O)[C@@H](CCCNC(=N)N)NC(=O)[C@H](CCCNC(=N)N)NC(=O)[C@@H]1CCCN1C(=O)[C@@H]1CCCN1C(=O)[C@H](CCCNC(=N)N)NC(=O)[C@@H]1CCCN1C(=O)[C@H](CCCNC(=N)N)NC(=O)[C@@H]1CCCN1C(=O)[C@H](CC(C)C)NC(=O)[C@H](Cc1ccc(O)cc1)NC(=O)[C@H](CCCNC(=N)N)NC(=O)[C@@H]1CCCN1C(=O)[C@H](CCCCN)NC(=O)[C@H](CC(=O)O)NC(=O)[C@@H](N)C(C)C)C(=O)N[C@@H](Cc1ccc(O)cc1)C(=O)N[C@@H](CC(N)=O)C(=O)N[C@H](CCCNC(=N)N)C(N)=O; test = broth microdilution; system = DSM 6247; conditions = 18 h, 37 °C, 25% MHB2; MIC = 128 µg/mL
Compound = CN[C@H](CC(C)C)C(=O)N[C@H]1C(=O)N[C@@H](CC(N)=O)C(=O)N[C@H]2C(=O)N[C@H]3C(=O)N[C@H](C(=O)N[C@H](C(=O)NCC(N)=O)c4cc(O)cc(O)c4-c4cc3ccc4O)[C@H](O)c3ccc(c(Cl)c3)Oc3cc2cc(c3O[C@@H]2O[C@H](CO)[C@@H](O)[C@H](O)[C@H]2O[C@H]2C[C@](C)(NCc3ccc(OCc4cn(CC(=O)N[C@H](C(=O)N[C@@H](CCN)C(=O)N[C@H]5CCNC(=O)[C@H]([C@@H](C)O)NC(=O)[C@H](CCN)NC(=O)[C@H](CCN)NC(=O)[C@H](CC(C)C)NC(=O)[C@@H](CC(C)C)NC(=O)[C@H](CCN)NC5=O)[C@@H](C)O)nn4)c(OC)c3)[C@H](O)[C@H](C)O2)Oc2ccc(cc2Cl)[C@H]1O; system = LIM-2 VISA; MIC = 0.74 µM
Compound = CC[C@H](C)[C@H](NC(=O)[C@H](CC(C)C)NC(=O)[C@H](CCCNC(=N)N)NC(=O)CNC(=O)CNC(=O)[C@H](CCCCN)NC(=O)[C@H](CCCNC(=N)N)NC(=O)[C@H](CC(C)C)NC(=O)[C@H](CC(C)C)NC(=O)[C@H](CCCNC(=N)N)NC(=O)[C@@H](NC(=O)[C@H](CC(C)C)NC(=O)[C@@H](N)CO)[C@@H](C)O)C(=O)NCC(=O)N[C@@H](Cc1c[nH]c2ccccc12)C(=O)N[C@@H](CCCNC(=N)N)C(=O)N[C@@H](Cc1c[nH]c2ccccc12)C(=O)N[C@@H](CCC(=O)O)C(=O)N[C@@H](CCCCN)C(=O)N[C@H](C(=O)N[C@@H](CCCNC(=N)N)C(=O)N[C@@H](CC(N)=O)C(=O)N[C@@H](Cc1c[nH]c2ccccc12)C(=O)N[C@H](C(=O)N[C@@H](CCCNC(=N)N)C(=O)N[C@@H](CCCNC(=N)N)C(=O)N[C@H](C(=O)N[C@H](C(=O)N[C@@H](CCC(=O)O)C(=O)N[C@@H](CCCCN)C(=O)N[C@@H](CCCNC(=N)N)C(=O)N[C@@H](CCCCN)C(=O)N1CCC[C@H]1C(=O)N[C@@H](CC(N)=O)C(=O)N[C@@H](CCCCN)C(=O)O)[C@@H](C)CC)[C@@H](C)CC)[C@@H](C)CC)[C@@H](C)O; test = broth microdilution; system = ATCC 25923, Mueller-Hinton broth; conditions = 16 to 20 h, 37 °C; MIC = 4.39 µg/mL

Some of these lines once more:
Compound = CC(C)CCCCCCCCC/C=C/C(=O)N[C@@H](CC(N)=O)C(=O)N[C@H]1CNC(=O)[C@@H]2CCCN2C(=O)[C@H](C(C)C)NC(=O)[C@@H](CN)NC(=O)CNC(=O)[C@H](CC(=O)O)NC(=O)CNC(=O)[C@H](CC(=O)O)NC(=O)[C@H](CC(=O)O)NC(=O)[C@H]2CCCCN2C1=O; test = broth microdilution; system = MRSA USA300, Mueller-Hinton broth, Mg2+ 10 mg/L; conditions = 16 h, 37 °C, with: Ca2+ 10 mM; MIC = 2 µg/mL
Compound = CCn1c(-c2ccc(F)cc2)c(-c2ccc(F)cc2)n(Cc2ccccc2)c1=[Se]; test = microbial growth, broth dilution; system = ATCC700699 VISA; conditions = 24 h, drug-resistant strain; MIC = > 40 µM
